Measured values from different studies.
Lines come from different studies, so protocols differ. Values joined by “and” are separate records of one study, mostly repeats; a detail may differ. Numbers after ± are the reported error. ≈ marks a conversion by molar mass, not a printed value.

COc1ccc(C)cc1NC(=O)OC1CC2CCCC(C1)N2Cc1ccc(CC[18F])cc1 (stereo not drawn) has an activity reduction of 93% (BALB/c mice EMT6 tumour, heart; dose not given, 2 h; relative to: initial activity).
CC(C)[C@H]1NC(=O)C[C@H]2/C=C/CCSSC[C@@H](NC1=O)C(=O)N[C@H](Cc1cccc3ccccc13)C(=O)NCC(=O)O2 has an AUC of 0.00222 µg·h/mL (nude mouse, blood; oral, 24 mg/kg).
O=c1c2ccccc2[se]n1CCCCn1[se]c2ccccc2c1=O gave a solubility of 42 ± 4 µg/mL (≈ 93.3 µM) (1% Soluplus in water; 24 h, 25 °C, 10 mg/mL).
CCCCCCCCCCCCC(=O)O.O=C1CCCC2C3CCCN4CCCC(CN12)C34 (stereo not drawn): “standard enthalpy of aggregation” -0.734 kcal/mol (electrical conductivity; water; 293.15 K).
Under “cis isomer content”, COc1ccc(N=Nc2cccc(NC(=O)CCCCCCC(=O)NO)c2)cc1 is recorded as 95% (1H NMR; DMSO; irradiation 365 nm).
O=C(c1ccc(F)cc1)C1CCN(C2Cc3c(cccc3OCC[18F])CC2O)CC1 (single isomer, unassigned; (-)) gave a brain uptake of 0.761 %ID/g (male Sprague-Dawley rat, striatum; intravenous, 120 min).
COC(=O)C[C@](O)(CCCC(C)(C)OC(C)=O)C(=O)O[C@@H]1C(OC)=C[C@]23CCCN2CCc2cc4c(cc2[C@H]13)OCO4 has a tissue concentration of 397 ng/mL (CD1 mouse, spleen; subcutaneous, 1 mg/kg, 2 h).
With CC[C@H](C)[C@H](NC(=O)[C@H](CCCNC(=N)N)NC(=O)[C@H](CCCCN)NC(=O)[C@H](CC(C)C)NC(=O)[C@H](CC(C)C)NC(=O)CNC(=O)[C@H](Cc1c[nH]cn1)NC(=O)[C@@H](NC(=O)[C@@H](N)C(C)C)[C@@H](C)CC)C(=O)N[C@@H](CCCCN)C(=O)N[C@H](C(=O)N[C@@H](CC(C)C)C(=O)N[C@@H](CC(C)C)C(N)=O)[C@@H](C)O the HD10 was 4 µM (haemolysis; human red blood cells; 1 h).
CN(C)c1ccc(C(=O)NCCCCN2CCN(c3ccccc3O[11CH3])CC2)cc1 gave a brain uptake of 0.107 %ID/g (Sprague Dawley rat, male, total brain; intravenous, 30 min).
CSCC[C@H](NC(=O)CNC(=O)[C@H](CC(=O)O)NC(=O)[C@@H](NC(=O)[C@@H](NC(=O)[C@@H](NC(=O)CNC(=O)[C@H](CCC(N)=O)NC(=O)[C@H](CCSC)NC(=O)[C@H](CC(=O)O)NC(=O)[C@H](C)NC(=O)[C@H](C)NC(=O)[C@@H](NC(=O)[C@H](CO)NC(=O)[C@@H](N)CC(C)C)[C@@H](C)O)C(C)C)C(C)C)[C@@H](C)O)C(=O)N[C@@H](C)C(=O)N[C@@H](CO)C(=O)NCC(=O)N[C@@H](CC(C)C)C(=O)N[C@@H](CC(=O)O)C(=O)N[C@@H](CCCCN)C(=O)N[C@@H](CC(=O)O)C(=O)N[C@@H](Cc1ccc(O)cc1)C(=O)N[C@@H](CC(C)C)C(=O)N[C@@H](CCCCN)C(=O)N1CCC[C@H]1C(=O)N[C@@H](CC(=O)O)C(=O)N[C@@H](CC(=O)O)C(=O)O gave a Cmax of 1010 ng/mL (human, serum; intravenous, 0.83 mg/kg, patients, infusion).
O=C([O-])C[N+]12CC(=O)[O][Re-2]1[O]P(=O)([O-])C2.[C-]#[O+].[C-]#[O+].[C-]#[O+] (stereo not drawn) — result for “isomer fraction at equilibrium”: 62% (HPLC; aqueous solution; 1 d, pH 7, room temperature).
With CCc1c2c(nc3ccc(OC4OC(C(=O)O)C(O)C(O)C4O)cc13)-c1cc3c(c(=O)n1C2)COC(=O)C3(O)CC (stereo not drawn) the AUC(0-inf) was 0.801 µg·h/mL (human patients, plasma; intravenous, 42 mg/m^2 of parent drug).
For CC[C@H](C)C(=O)N1CCC(NC(=O)Nc2ccc(OC(F)(F)F)c(F)c2)CC1, “subjects with any AE” read 50% (healthy volunteers; oral, 8 mg single dose, 14 (unit not given)).
For CC(C)C[C@@H](NC(=O)[C@@H](C)NC(=O)[C@@H](CC(C)C)NC(=O)[C@@H](CCCCN)NC(=O)[C@H](N)CCCCN)C(=O)N[C@H](Cc1c[nH]cn1)C(=O)N[C@H](C)C(=O)N[C@H](CC(C)C)C(=O)N[C@H](CCCCN)C(=O)N[C@H](CCCCN)C(=O)N[C@H](Cc1c[nH]c2ccccc12)C(=O)N[C@H](CC(C)C)C(=O)N[C@H](Cc1c[nH]cn1)C(=O)N[C@H](C)C(=O)N[C@H](CC(C)C)C(=O)N[C@H](CCCCN)C(=O)N[C@H](CCCCN)C(=O)N[C@H](CC(C)C)C(=O)N[C@H](C)C(=O)N[C@H](Cc1c[nH]cn1)C(=O)N[C@H](CC(C)C)C(=O)N[C@H](C)C(=O)N[C@H](CC(C)C)C(=O)N[C@H](CCCCN)C(=O)N[C@H](CCCCN)C(N)=O, the HC50 was 20.3 ± 2.42 µM (haemolysis; human erythrocytes; 30 min, pH 7.4, 37 °C).
The distribution half-life of CC[C@H](C)[C@H](NC(=O)CNC(=O)[C@@H](NC(=O)[C@H](Cc1ccc(O)cc1)NC(=O)[C@@H](NC(=O)[C@H](CO)NC(=O)[C@@H](NC(=O)[C@H](C)NC(=O)[C@@H]1CCCN1C(=O)[C@@H](NC(=O)[C@H](Cc1ccccc1)NC(=O)[C@H](CCCCN)NC(=O)[C@H](CCC(=O)O)NC(=O)[C@H](Cc1ccc(O)cc1)NC(=O)[C@H](CC(C)C)NC(=O)[C@H](CC(=O)O)NC(=O)[C@H](CCCNC(=N)N)NC(=O)[C@H](CC(C)C)NC(=O)[C@H](CCCCN)NC(=O)[C@H](CCC(=O)O)NC(=O)[C@H](Cc1ccccc1)NC(=O)[C@@H](NC(=O)[C@H](CCC(=O)O)NC(=O)[C@H](CCCCN)NC(=O)[C@H](CC(C)C)NC(=O)[C@H](Cc1ccc(O)cc1)NC(=O)[C@@H](N)CC(=O)O)C(C)C)[C@@H](C)O)C(C)C)[C@@H](C)O)[C@@H](C)O)C(=O)N[C@@H](Cc1ccccc1)C(=O)N[C@H](C(=O)N[C@@H](CC(=O)O)C(=O)N[C@@H](CCC(N)=O)C(=O)N[C@H](C(=O)N[C@@H](CC(C)C)C(=O)N[C@@H](CO)C(=O)N[C@H](C(=O)N[C@@H](CC(C)C)C(=O)N[C@@H](CCCCN)C(=O)NCC(=O)N[C@@H](CCC(=O)O)C(=O)N[C@@H](CCC(=O)O)C(=O)O)C(C)C)C(C)C)[C@@H](C)O is reported as 3 h (C57BL/6 mouse; intravenous, dose not given).
The clearance of CCCCCCCC(=O)NCCCC[C@H](NC(=O)[C@H](Cc1ccccc1)NC(=O)[C@@H](CCCNC(=N)N)NC(=O)[C@@H](N)Cc1ccc(O)cc1)C(N)=O is reported as 1.19 mL/min (male CD-1 mouse, plasma; intravenous, 3 mg/kg).
With CC(C)C[C@H](NC(=O)[C@H](CCCCN)NC(=O)[C@H](CCC(=O)O)NC(=O)[C@H](C)NC(=O)[C@@H](NC(=O)[C@H](CCCCN)NC(=O)[C@H](CC(=O)O)NC(=O)[C@H](Cc1ccc(O)cc1)NC(=O)[C@H](Cc1ccccc1)NC(=O)[C@H](C)NC(=O)[C@H](CCCCN)NC(=O)[C@H](CC(C)C)NC(=O)[C@H](Cc1c[nH]c2ccccc12)NC(=O)[C@@H](N)CC(=O)O)C(C)C)C(=O)N[C@@H](CCCCN)C(=O)N[C@@H](CCC(=O)O)C(=O)N[C@@H](C)C(=O)N[C@@H](Cc1ccccc1)C(=O)N1CCC[C@H]1C(=O)N[C@@H](CC(=O)O)C(=O)N[C@@H](Cc1c[nH]c2ccccc12)C(=O)N[C@@H](C)C(=O)N[C@@H](CCCCN)C(=O)N[C@@H](C)C(=O)N[C@@H](C)C(=O)N[C@@H](Cc1ccc(O)cc1)C(=O)N[C@@H](CC(=O)O)C(=O)N[C@@H](CCCCN)C(=O)N[C@@H](C)C(=O)N[C@@H](C)C(=O)N[C@@H](CCC(=O)O)C(=O)N[C@@H](CCCCN)C(=O)N[C@@H](C)C(=O)N[C@@H](CCCCN)C(=O)N[C@@H](CCC(=O)O)C(=O)N[C@@H](C)C(=O)N[C@@H](C)C(=O)O the AUC(0-last) was 1540 µg·h/mL (cynomolgus monkey female, plasma; intravenous infusion, 25 mg/kg, day 1, 30 min infusion).
CN[C@](C)(C[18F])C(=O)O gave a tissue uptake of 0.3 ± 0.1 %ID/g (SCID mouse SK-OV-3 xenograft, brain; 30 min, post injection).
For C[S]1CC[S]2CC[P](CO)(CO)[99Tc+]12.[C-]#[O+].[C-]#[O+].[C-]#[O+], “uptake in small intestine” read 3.06 %ID and 3.1 %ID (CF-1 mouse; intravenous, 4 h).
CC(C)[C@H](NC(=O)CNC(=O)[C@H](CCC(N)=O)NC(=O)[C@H](C)N)C(=O)O: “subjects with any adverse event” 33.3% (human; 3 mg/kg single dose).
NC(=O)[C@@H](Cc1ccccc1)N[11C](=O)OCc1ccccc1 has an SUV max of 1.5 (dynamic PET; Wistar rat, male, whole brain; intravenous, 3 min).
For CC(C)C[C@@H]1NC(=O)[C@@H](Cc2ccccc2)NC(=O)[C@H](CCN)NC(=O)[C@@H](NC(=O)[C@H](CN)NC(=O)[C@@H](NC(=O)CC(CN)Cc2ccccc2)[C@@H](C)O)CCNC(=O)[C@H]([C@@H](C)O)NC(=O)[C@H](CCN)NC(=O)[C@H](CCN)NC1=O (stereo partly drawn), “urinary cystatin C excretion” read 893 ng/24 h (ELISA; male CD-1 mouse, urine; subcutaneous, 25 mg/kg, 4 doses every 8 h, 24 h urine collection, nephrotoxicity).
N=C(N)NCc1ccc(C(=O)NCCCC[C@H](NC(=O)N[C@@H](CCC(=O)O)C(=O)O)C(=O)O)cc1[211At] has a tissue uptake of 89 ± 5.2 %ID/g (SCID mouse, PC-3 xenografts, kidneys; 2 h).
With CSCC[C@@H]1NC(=O)[C@@H]2CSSC[C@H](NC(=O)[C@H](CO)NC(=O)[C@H](C)N)C(=O)N[C@@H](CCCNC(=N)N)C(=O)N[C@@H]([C@@H](C)O)C(=O)N3CCC[C@H]3C(=O)N[C@@H](CCCCN)C(=O)N[C@@H](CC(=O)O)C(=O)N[C@H]3CSSC[C@H](NC(=O)[C@H](CCCCN)NC(=O)[C@H](CCCNC(=N)N)NC(=O)[C@H](CC(N)=O)NC1=O)C(=O)N[C@@H](CCCCN)C(=O)N[C@H]1CSSC[C@H](NC(=O)[C@@H]4CCCN4C(=O)[C@H](CC(=O)O)NC(=O)[C@H](C)NC3=O)C(=O)N[C@@H](C)C(=O)N[C@@H](CCCCN)C(=O)N[C@@H](CCC(=O)O)C(=O)N[C@@H]([C@@H](C)O)C(=O)NCC(=O)N[C@@H](CSSC[C@@H](C(N)=O)NC(=O)[C@H](CCCNC(=N)N)NC(=O)[C@H](CC(N)=O)NC1=O)C(=O)N1CCC[C@H]1C(=O)N[C@@H](Cc1ccc(O)cc1)C(=O)NCC(=O)N[C@@H](CCCCN)C(=O)N2 the creatine kinase was 443 U/L (DA rat, pristane-induced arthritis, serum; subcutaneous, single 0.1 mg/kg at onset, end of 21-day trial).
C/C=C/C=C/C/C=C/CCCCCCCc1cccc(O)c1O has a tissue concentration of 13300 ± 1650 ng/g (female Kunming mice, tumour-bearing, spleen; intravenous, 10 mg/kg, 0.083 h).
N#Cc1c(O)c(Cl)c(Cl)c(C#N)c1Cl — result for “rosuvastatin AUC(0-4 h)”: 0.0101 µg·h/mL (healthy human volunteers, plasma; oral, dose not given, geometric mean, together with: rosuvastatin).
[2H]C([2H])([2H])C([2H])([2H])C([2H])([2H])OC(C(=O)OC1CCNCC1)(c1ccccc1)c1ccccc1 gave an accumulation ratio of 5 (healthy Japanese male, plasma; oral, dose not given, 16 days; relative to: single dose).
Cc1ccc(/C=C/C(=O)O)cc1-c1cc2c(cc1C)C(C)(C)CCC2(C)C has a blood cholesterol of 100 ± 16.1 mg/dL (Sprague-Dawley rat, male; oral, 100 mg/kg, 1 h, sesame oil vehicle).
CN(C)C(CNC(=O)Nc1cc(C(F)(F)F)ccc1N1CCOCC1)c1ccncc1 (stereo not drawn) gave a serum AST of 1740 U/L (mouse, serum; intraperitoneal, 360 mg/kg single dose).
Under “duration of sustained exposure”, Cc1cc(Oc2nc(N3CC[C@@H](c4ccncc4)C3)ncc2F)[nH]n1 is recorded as ≥ 4 weeks (BALB/c mice, female; s.c., 1500 mg/kg, long-acting injectable).

Repeated from above:
For C[S]1CC[S]2CC[P](CO)(CO)[99Tc+]12.[C-]#[O+].[C-]#[O+].[C-]#[O+], “uptake in small intestine” read 3.06 %ID and 3.1 %ID (CF-1 mouse; intravenous, 4 h).
For CC[C@H](C)C(=O)N1CCC(NC(=O)Nc2ccc(OC(F)(F)F)c(F)c2)CC1, “subjects with any AE” read 50% (healthy volunteers; oral, 8 mg single dose, 14 (unit not given)).
For CC(C)C[C@@H]1NC(=O)[C@@H](Cc2ccccc2)NC(=O)[C@H](CCN)NC(=O)[C@@H](NC(=O)[C@H](CN)NC(=O)[C@@H](NC(=O)CC(CN)Cc2ccccc2)[C@@H](C)O)CCNC(=O)[C@H]([C@@H](C)O)NC(=O)[C@H](CCN)NC(=O)[C@H](CCN)NC1=O (stereo partly drawn), “urinary cystatin C excretion” read 893 ng/24 h (ELISA; male CD-1 mouse, urine; subcutaneous, 25 mg/kg, 4 doses every 8 h, 24 h urine collection, nephrotoxicity).
